Published values of several laboratories.
Protocols differ between the studies behind these lines. Values joined by “and” are separate records of one study, mostly repeats; a detail may differ. Numbers after ± are the reported error.
DRD3: D(3) dopamine receptor (DRD3, Homo sapiens, UniProt P35462)
Chain of UniProt P35462 (whole entry, looked up): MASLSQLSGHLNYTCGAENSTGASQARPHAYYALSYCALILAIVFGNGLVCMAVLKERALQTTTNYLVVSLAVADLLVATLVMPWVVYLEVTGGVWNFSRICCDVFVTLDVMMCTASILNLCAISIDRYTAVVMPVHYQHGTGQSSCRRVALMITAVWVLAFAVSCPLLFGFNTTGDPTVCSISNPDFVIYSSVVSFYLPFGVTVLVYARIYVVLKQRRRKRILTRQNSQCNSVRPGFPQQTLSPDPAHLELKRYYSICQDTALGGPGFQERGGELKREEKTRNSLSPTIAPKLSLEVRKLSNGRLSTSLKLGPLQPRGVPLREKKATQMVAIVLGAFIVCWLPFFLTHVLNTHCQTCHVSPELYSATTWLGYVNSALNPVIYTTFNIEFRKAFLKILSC
TNKS2: Poly [ADP-ribose] polymerase tankyrase-2 (TNKS2, Homo sapiens, UniProt Q9H2K2)
Chain of UniProt Q9H2K2 (whole entry, looked up): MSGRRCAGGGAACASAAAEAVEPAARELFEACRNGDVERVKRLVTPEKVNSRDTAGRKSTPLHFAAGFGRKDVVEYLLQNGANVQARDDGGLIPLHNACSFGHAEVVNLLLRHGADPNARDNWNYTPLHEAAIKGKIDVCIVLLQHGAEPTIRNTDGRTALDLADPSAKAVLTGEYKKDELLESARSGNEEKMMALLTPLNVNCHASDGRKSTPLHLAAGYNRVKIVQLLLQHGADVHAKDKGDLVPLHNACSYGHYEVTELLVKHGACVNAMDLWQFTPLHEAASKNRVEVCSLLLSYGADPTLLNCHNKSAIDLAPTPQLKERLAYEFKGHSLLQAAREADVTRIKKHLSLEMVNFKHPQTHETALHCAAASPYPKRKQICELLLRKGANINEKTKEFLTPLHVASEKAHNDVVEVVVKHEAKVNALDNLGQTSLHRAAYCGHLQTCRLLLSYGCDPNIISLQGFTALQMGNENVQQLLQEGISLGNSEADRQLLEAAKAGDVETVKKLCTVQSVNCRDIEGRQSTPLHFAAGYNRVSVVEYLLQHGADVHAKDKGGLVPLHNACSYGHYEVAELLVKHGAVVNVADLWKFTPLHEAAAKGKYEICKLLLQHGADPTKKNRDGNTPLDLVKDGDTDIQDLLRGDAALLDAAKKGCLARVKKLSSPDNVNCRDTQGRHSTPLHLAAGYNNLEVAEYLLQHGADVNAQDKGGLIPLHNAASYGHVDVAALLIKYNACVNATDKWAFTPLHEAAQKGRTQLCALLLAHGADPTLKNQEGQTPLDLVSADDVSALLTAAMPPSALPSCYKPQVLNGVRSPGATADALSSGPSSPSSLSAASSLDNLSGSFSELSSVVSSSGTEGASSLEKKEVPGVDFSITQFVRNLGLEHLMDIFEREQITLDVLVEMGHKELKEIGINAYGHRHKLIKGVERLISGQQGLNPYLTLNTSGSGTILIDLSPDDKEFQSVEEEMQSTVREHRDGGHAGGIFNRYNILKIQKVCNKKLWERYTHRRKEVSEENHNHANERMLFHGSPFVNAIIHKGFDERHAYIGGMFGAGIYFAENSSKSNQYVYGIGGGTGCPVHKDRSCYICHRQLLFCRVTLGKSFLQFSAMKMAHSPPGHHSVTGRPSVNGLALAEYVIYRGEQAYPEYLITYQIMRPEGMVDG
Chain of UniProt Q9RUB5 (whole entry, looked up): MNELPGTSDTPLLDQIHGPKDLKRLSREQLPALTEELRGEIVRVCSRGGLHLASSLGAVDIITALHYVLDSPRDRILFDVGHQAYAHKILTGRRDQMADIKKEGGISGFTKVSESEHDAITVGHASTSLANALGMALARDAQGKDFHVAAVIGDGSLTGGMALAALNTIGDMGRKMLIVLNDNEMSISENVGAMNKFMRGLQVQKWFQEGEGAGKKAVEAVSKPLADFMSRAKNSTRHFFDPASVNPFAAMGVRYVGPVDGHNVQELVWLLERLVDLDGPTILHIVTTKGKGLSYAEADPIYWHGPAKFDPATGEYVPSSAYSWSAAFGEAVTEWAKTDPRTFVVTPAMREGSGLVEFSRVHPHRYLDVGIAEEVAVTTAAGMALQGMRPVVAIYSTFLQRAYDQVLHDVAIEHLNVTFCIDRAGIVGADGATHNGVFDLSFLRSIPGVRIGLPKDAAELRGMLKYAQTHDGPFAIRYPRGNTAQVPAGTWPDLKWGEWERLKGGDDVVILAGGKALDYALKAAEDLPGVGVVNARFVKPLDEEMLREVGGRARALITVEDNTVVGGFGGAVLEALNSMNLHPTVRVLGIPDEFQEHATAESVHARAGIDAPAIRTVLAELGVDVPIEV
Chain of UniProt P54756 (whole entry, looked up): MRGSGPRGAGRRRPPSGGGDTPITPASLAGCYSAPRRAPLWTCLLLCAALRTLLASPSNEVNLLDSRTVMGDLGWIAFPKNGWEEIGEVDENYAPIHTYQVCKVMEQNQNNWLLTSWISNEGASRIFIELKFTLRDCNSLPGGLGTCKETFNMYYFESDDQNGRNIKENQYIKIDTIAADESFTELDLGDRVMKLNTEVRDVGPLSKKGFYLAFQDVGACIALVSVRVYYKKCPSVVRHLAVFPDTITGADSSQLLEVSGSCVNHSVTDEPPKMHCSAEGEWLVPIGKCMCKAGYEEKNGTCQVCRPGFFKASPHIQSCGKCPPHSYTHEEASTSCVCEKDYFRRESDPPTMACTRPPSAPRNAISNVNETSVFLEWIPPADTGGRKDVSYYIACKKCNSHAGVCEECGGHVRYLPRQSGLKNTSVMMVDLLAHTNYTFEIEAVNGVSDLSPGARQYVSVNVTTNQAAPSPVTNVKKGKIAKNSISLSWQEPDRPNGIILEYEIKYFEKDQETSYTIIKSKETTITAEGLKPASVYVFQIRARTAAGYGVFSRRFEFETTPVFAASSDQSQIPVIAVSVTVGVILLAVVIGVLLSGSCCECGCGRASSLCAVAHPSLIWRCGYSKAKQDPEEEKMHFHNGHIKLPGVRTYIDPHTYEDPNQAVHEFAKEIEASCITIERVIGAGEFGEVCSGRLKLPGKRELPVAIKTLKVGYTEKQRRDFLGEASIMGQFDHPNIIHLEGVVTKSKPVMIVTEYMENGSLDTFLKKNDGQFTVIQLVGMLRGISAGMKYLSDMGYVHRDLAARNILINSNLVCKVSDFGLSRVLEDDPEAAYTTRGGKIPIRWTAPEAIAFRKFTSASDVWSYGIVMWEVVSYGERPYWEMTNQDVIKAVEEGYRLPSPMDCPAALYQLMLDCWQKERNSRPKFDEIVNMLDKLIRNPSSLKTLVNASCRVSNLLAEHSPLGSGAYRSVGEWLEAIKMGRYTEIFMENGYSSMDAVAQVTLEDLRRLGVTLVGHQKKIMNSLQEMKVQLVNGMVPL
Chain of UniProt Q13547 (whole entry, looked up): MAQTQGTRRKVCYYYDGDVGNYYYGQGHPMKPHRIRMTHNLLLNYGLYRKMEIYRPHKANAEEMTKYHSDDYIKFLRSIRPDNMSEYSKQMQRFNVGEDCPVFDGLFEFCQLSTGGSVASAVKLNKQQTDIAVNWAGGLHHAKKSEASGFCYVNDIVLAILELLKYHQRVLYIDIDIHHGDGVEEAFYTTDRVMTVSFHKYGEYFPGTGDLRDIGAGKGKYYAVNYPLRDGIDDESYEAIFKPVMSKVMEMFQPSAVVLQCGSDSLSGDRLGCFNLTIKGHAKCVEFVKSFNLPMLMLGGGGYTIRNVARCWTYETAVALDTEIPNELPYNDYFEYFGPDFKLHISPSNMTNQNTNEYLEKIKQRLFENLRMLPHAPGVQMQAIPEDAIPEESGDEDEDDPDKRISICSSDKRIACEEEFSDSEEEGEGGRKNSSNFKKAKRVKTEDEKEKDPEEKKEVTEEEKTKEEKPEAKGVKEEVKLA
Chain of UniProt Q9NWT6 (whole entry, looked up): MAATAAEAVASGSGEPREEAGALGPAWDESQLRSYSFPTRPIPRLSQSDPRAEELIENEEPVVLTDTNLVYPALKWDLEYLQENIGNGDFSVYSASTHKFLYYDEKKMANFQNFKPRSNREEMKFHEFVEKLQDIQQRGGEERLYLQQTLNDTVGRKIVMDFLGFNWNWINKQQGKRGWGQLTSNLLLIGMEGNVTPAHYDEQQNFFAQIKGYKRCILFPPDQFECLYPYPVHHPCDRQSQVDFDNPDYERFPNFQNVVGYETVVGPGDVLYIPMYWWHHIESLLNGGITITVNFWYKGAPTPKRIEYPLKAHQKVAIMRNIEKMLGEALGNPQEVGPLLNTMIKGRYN
Chain of UniProt Q96D96 (whole entry, unmodified, looked up): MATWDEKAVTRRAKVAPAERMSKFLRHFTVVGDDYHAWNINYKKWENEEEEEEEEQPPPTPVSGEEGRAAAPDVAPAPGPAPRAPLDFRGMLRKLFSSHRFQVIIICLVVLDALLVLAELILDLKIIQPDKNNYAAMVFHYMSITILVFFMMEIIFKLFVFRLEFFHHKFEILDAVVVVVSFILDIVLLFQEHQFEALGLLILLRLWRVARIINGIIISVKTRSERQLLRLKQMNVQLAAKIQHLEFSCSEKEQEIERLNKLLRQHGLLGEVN
Chain of UniProt Q13557 (whole entry, looked up): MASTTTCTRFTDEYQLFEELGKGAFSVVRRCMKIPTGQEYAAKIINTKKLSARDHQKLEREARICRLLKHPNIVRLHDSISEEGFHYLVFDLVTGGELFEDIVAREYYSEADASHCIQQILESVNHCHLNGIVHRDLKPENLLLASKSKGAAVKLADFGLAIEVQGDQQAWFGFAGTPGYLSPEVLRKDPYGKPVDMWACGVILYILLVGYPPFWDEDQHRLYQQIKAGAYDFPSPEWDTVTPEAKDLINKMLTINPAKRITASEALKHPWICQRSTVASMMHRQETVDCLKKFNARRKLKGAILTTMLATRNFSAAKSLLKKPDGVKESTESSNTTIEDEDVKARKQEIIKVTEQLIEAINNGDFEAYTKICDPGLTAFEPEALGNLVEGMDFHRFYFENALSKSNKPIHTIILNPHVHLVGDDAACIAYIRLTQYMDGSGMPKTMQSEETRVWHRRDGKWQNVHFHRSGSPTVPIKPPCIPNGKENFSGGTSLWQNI

| Compound | target | test | test system | conditions | IC50 |
| --- | --- | --- | --- | --- | --- |
| N#Cc1nc2c(nc1C#N)-c1ccccc1/C2=N\OCc1ccccc1 | USP8 (Homo sapiens, UniProt P40818) | enzyme activity, inhibitor, MALDI-TOF DUB |  | 35 min preincubation, 30 °C | 8.39 µM |
| Cc1c(C(=O)N(C)C)c(S(=O)(=O)Nc2ccc(C(F)(F)F)c(Cl)c2)c(C)n1C | DRD3 | Go activation, antagonist, BRET |  | added: dopamine | > 100 µM |
| COc1cc(C)c2cc(C3(NS(=O)(=O)c4ccccc4-c4ccccc4)COC3)oc2c1 | Histone acetyltransferase KAT6A, residues 194-810 (KAT6A, Homo sapiens, UniProt Q92794) | enzyme activity, inhibitor |  |  | > 20 µM |
| Cc1cnc(-c2ccc(-c3ccc(NC(=O)Nc4c(F)cc(F)cc4F)cc3F)c3c2C(=O)NC3)[nH]1 | ITK (Homo sapiens, UniProt Q08881) | enzyme activity, inhibitor, mobility shift |  | added: ATP 1 mM | 0.0144 µM |
| O=c1[nH]c2c(nnn2C2CCCCC2)c2ccc(F)cc12 | TNKS2 | ADP-ribosyltransferase activity, inhibitor, NAD+ consumption fluorescence |  |  | 1.91 µM |
| CCc1nc(C(N)=O)c(Nc2ccc(N3CCC(N4CCN(C)CC4)CC3)c(OC)c2)nc1NC1CCOCC1 | SLC47A1 (Homo sapiens, UniProt Q96FL8) | MATE1-mediated TEA uptake, inhibitor | HEK293 expressing MATE1 | 15 min, added: radiolabelled tetraethylammonium | 0.035 µM |
| Cc1[nH]c(C)c(S(=O)(=O)Nc2ccc(S(N)(=O)=O)c(Cl)c2)c1C(=O)N1CCC(F)(F)C1 | DRD3 | Go activation, antagonist, BRET |  | added: dopamine | > 100 µM |
| CN1CCN(c2ccc(Nc3ncc4cc(C#N)c(=O)n(C5CCCC5)c4n3)cc2)CC1 | MERTK (Homo sapiens, UniProt Q12866) |  |  |  | 3.27 µM |
| Cc1[nH]c(C)c(S(=O)(=O)Nc2c(Cl)ccc(Cl)c2Cl)c1C(=O)N1CCC(F)(F)C1 | DRD3 | Go activation, antagonist, BRET |  | added: dopamine | > 100 µM |
| COc1cc2nccc(Oc3ccc(NC(=O)c4cc5c(n(-c6ccccc6)c4=O)CCCC5=O)nc3)c2cc1OC | EPHA5 (Homo sapiens, UniProt P54756) | cell viability, CellTiter-Glo | Ba/F3 expressing recombinant kinase | 48 h | > 0.1 µM |
| CCN(Cc1cnc2nc(N)nc(N)c2n1)c1ccc(C(=O)c2ccccc2)cc1 | Pteridine reductase (PTR1, Trypanosoma brucei brucei, UniProt O76290) |  |  | estimated, tight-binding limit | ≤ 0.0001 µM |
| [Cl-].[Cl-].[Zn+2] | HVCN1 (Homo sapiens, UniProt Q96D96, E119H) | whole-cell voltage clamp |  | 80 mV, open probability 0.8 | 0.51 µM |
| CC(C)N(CCC(=O)c1ccc2ccccc2c1)Cc1ccccc1 | F13A1 (Homo sapiens, UniProt P00488) | crosslinking activity |  | added: DTT | 10 ± 2 µM |
| Cc1[nH]c(C)c(S(=O)(=O)Nc2ccc(NS(C)(=O)=O)c(Cl)c2)c1C(=O)N1CCC(F)(F)C1 | DRD3 | β-arrestin recruitment, antagonist, PathHunter |  | added: dopamine EC80 | > 100 µM |
| CC(=O)N[C@H]1[C@H]([C@H](O)[C@H](O)CO)OC(C(=O)O)=C[C@@H]1O | sialidase | enzyme activity, inhibitor | human, healthy human microbiome sample | added: 4-MUNANA | 11 ± 1 µM |
| CC/C(=N\NC(=O)NCc1cccc(O)c1)c1ccc(O)c(C)c1O | PRKACB (Homo sapiens, UniProt P22694) | kinase activity, inhibitor |  |  | 0.0122 ± 0.00095 µM |
| Cc1ccccc1Cn1nnc2c3ccc(F)cc3c(=O)[nH]c21 | TNKS2 | ADP-ribosyltransferase activity, inhibitor, NAD+ consumption fluorescence |  |  | 0.11 µM |
| Cc1ccc(NS(=O)(=O)c2c(C)[nH]c(C)c2C(=O)N2CCC(F)(F)C2)cn1 | DRD3 | Go activation, antagonist, BRET |  | added: dopamine | > 100 µM |
| CC[C@@H]1[C@H](F)C(=O)N[C@@H]1COc1nccc2cc(C(N)=O)c(OC)cc12 | CAMK2D (Homo sapiens, UniProt Q13557) | ATP-site probe binding, inhibitor, ActivX ATP probe profiling | THP-1 cell lysate | probe site Lys1 | 3.2 µM |
| CNC(=O)[C@@H](NC(=O)[C@H](CC(C)C)[C@H](O)C(=O)NO)C(C)(C)C | Matrix metalloproteinase-9, proteoglycan form (Gallus gallus, UniProt Q9DE15) | enzyme activity, inhibitor, fluorogenic peptide cleavage |  | 1.5 h preincubation, pH 7.5, 25 °C, added: MCA-PLGL-Dpa-AAR-NH2 1.0 µM | 0.01 µM |
| Cc1ccc(NS(=O)(=O)CCC(=O)N[C@@H](C)CC(=O)N2CCCC2)cc1Cl | DRD3 | Go activation, antagonist, BRET |  | added: dopamine | > 100 µM |
| O=C(CCCCCCC(=O)Nc1ccc(CCF)cc1)NO | HDAC1 (Homo sapiens, UniProt Q13547) |  |  |  | 0.056 µM |
| O=C(N/N=C/c1ccc2cc[nH]c2c1)c1cc2c(s1)CCCC2 | dxs (Deinococcus radiodurans, UniProt Q9RUB5) |  |  |  | 15.8 µM and 14.3 µM |
| O=c1[nH]c2c(nnn2-c2ccc(Br)cc2)c2ccccc12 | TNKS2 | ADP-ribosyltransferase activity, inhibitor, NAD+ consumption fluorescence |  |  | > 10 µM |
| Cc1[nH]c(C)c(S(=O)(=O)Nc2ccc(C(F)(F)F)c(Cl)c2)c1C(=O)O | DRD3 | β-arrestin recruitment, antagonist, PathHunter |  | added: dopamine EC80 | > 100 µM |
| O=c1[nH]c2c(nnn2Cc2ccc(C(F)(F)F)cc2)c2ccc(F)cc12 | TNKS2 | ADP-ribosyltransferase activity, inhibitor, NAD+ consumption fluorescence |  |  | 0.0427 µM |
| O=C(O)CC(=O)C(=O)O | HIF1AN (Homo sapiens, UniProt Q9NWT6) | enzyme activity, inhibitor |  | pH 7 | > 1000 µM |
| Cc1[nH]c(C)c(S(=O)(=O)Nc2ccc(N(C)C)c(Cl)c2)c1C(=O)N1CCC(F)(F)C1 | DRD3 | Go activation, antagonist, BRET |  | added: dopamine | > 100 µM |
| COc1cccc(Cn2nnc3c4ccccc4c(=O)[nH]c32)c1 | TNKS2 | inhibitor |  |  | 0.0955 µM |

For quick reference, copied from above:
| Compound | target | test | test system | conditions | IC50 |
| --- | --- | --- | --- | --- | --- |
| Cc1[nH]c(C)c(S(=O)(=O)Nc2c(Cl)ccc(Cl)c2Cl)c1C(=O)N1CCC(F)(F)C1 | DRD3 | Go activation, antagonist, BRET |  | added: dopamine | > 100 µM |
| COc1cc2nccc(Oc3ccc(NC(=O)c4cc5c(n(-c6ccccc6)c4=O)CCCC5=O)nc3)c2cc1OC | EPHA5 (Homo sapiens, UniProt P54756) | cell viability, CellTiter-Glo | Ba/F3 expressing recombinant kinase | 48 h | > 0.1 µM |
| CCN(Cc1cnc2nc(N)nc(N)c2n1)c1ccc(C(=O)c2ccccc2)cc1 | Pteridine reductase (PTR1, Trypanosoma brucei brucei, UniProt O76290) |  |  | estimated, tight-binding limit | ≤ 0.0001 µM |
